Published values of several laboratories.
Compare with care: the assays were run in different laboratories. Numbers after ± are the reported error.

Under “surface partition coefficient”, `[Cl-].[Cs+]` is recorded as roughly 0 m (air-water interface, water droplet).
`Cc1cnc(C(=O)N[C@H]2CCCCC/C=C\[C@@H]3C[C@@]3(C(=O)NS(=O)(=O)C3CC3)NC(=O)[C@@H]3C[C@@H](Oc4nc5ccccc5c5ccccc45)CN3C2=O)cn1` gave an AUC(0-24) of 2010 ng·h/mL (healthy human volunteers, plasma; oral, dose not given, rosuvastatin interaction study; reference: given without rosuvastatin).
`CN[C@@](C)(C[18F])C(=O)O` gave a tissue uptake of 3.3 ± 0.4 %ID/g (SCID mouse U87 xenograft, kidney; 120 min, post injection).
`O[C@H]1CCCN[C@@H]1CCCn1cnc2c(Cl)c(Cl)ccc21` gave an AUC(0-tau) of 741 ng·h/mL (healthy human volunteers, plasma; oral, 200 mg, day 1, multiple ascending dose).
The body weight of `Oc1cccc2ccccc12` is reported as 697 ± 43 mg (fish short-term reproduction; Oryzias latipes, female, water, flow-through; 258 µg/L, end of exposure).
`O=C(c1ccc(F)c(F)c1Nc1ccc(I)cc1F)N1CC(O)([C@@H]2CCCCN2)C1`: “treatment-related adverse events” 0% (refers to: retinal detachment; human patients; oral, dose not given, dose escalation, tablet, grade G1).
`CC(=O)N[C@H](CCCCNC(=O)C(C)F)C(=O)N[C@@H](CS)C(=O)N[C@@H](CS)C(=O)N[C@@H](CCC(=O)O)C(=O)N[C@@H](Cc1c[nH]cn1)C(=O)N[C@H](Cc1ccccc1)C(=O)N[C@@H](CCCNC(=N)N)C(=O)N[C@@H](Cc1c[nH]c2ccccc12)C(=O)N[C@@H](CS)C(=O)N[C@@H](CCCNC(=N)N)C(=O)N1CCC[C@H]1C(=O)N[C@H](C(N)=O)C(C)C` (stereo partly drawn) [fluorine-18 labelled] gave a tissue uptake of 0.31 ± 0.07 %ID/g (C57BL/6 mice, male, B16-F10 tumour, lung; intravenous, 4 h).
`[Met(O2)35]Aβ40` — result for “time to fibril formation”: no more than 96 h (electron microscopy; sodium phosphate buffer; 10 µM, pH 7.4, 25 °C, agitation 200 rpm).
Under “maximum tolerated concentration”, `CN1CC[C@H](c2c(O)cc(O)c3c(=O)cc(-c4ccccc4Cl)oc23)[C@H](O)C1` is recorded as 2 µM (zebrafish embryos; immersion, 72 h).
For `CCCCCCCCCCCCCCCC[N+](C)(C)Cc1ccccc1`, the intrinsic clearance was 0.63 mL/h/mg protein (substrate depletion; human liver microsomes; 0.5 µM, 0 to 3 h, 37 °C, together with: NADPH).
`C[C@@H]1CN(c2cccnc2F)C(=O)c2cc(COc3ccc(Cl)cn3)nn21` — result for “estimated unbound brain Cmax”: 2300 nM (Sprague-Dawley rat; intraperitoneal, 56.6 mg/kg, assumed dose linearity).
For `CCCCCOc1ccc(-c2ccc(-c3ccc(C(=O)N[C@H]4C[C@@H](O)[C@@H](O)NC(=O)[C@@H]5[C@@H](O)[C@@H](C)CN5C(=O)[C@H]([C@@H](C)O)NC(=O)[C@H]([C@H](O)[C@@H](O)c5ccc(O)cc5)NC(=O)[C@@H]5C[C@@H](O)CN5C(=O)[C@H]([C@@H](C)O)NC4=O)cc3)cc2)cc1`, the clearance mean was 0.333 mL/min/kg (patients aged 5 to <sample A years, plasma; intravenous, loading 3.0 then 1.5 mg/kg daily).

Some of these lines once more:
`O=C(c1ccc(F)c(F)c1Nc1ccc(I)cc1F)N1CC(O)([C@@H]2CCCCN2)C1`: “treatment-related adverse events” 0% (refers to: retinal detachment; human patients; oral, dose not given, dose escalation, tablet, grade G1).
